Published values from different studies.
Protocols differ between the studies behind these lines. Several values in a cell are separate wells, animals, samples, runs or records.
PLA2G4A: Cytosolic phospholipase A2 (PLA2G4A, Homo sapiens, UniProt P47712)
Chain of UniProt P47712 (whole entry, looked up): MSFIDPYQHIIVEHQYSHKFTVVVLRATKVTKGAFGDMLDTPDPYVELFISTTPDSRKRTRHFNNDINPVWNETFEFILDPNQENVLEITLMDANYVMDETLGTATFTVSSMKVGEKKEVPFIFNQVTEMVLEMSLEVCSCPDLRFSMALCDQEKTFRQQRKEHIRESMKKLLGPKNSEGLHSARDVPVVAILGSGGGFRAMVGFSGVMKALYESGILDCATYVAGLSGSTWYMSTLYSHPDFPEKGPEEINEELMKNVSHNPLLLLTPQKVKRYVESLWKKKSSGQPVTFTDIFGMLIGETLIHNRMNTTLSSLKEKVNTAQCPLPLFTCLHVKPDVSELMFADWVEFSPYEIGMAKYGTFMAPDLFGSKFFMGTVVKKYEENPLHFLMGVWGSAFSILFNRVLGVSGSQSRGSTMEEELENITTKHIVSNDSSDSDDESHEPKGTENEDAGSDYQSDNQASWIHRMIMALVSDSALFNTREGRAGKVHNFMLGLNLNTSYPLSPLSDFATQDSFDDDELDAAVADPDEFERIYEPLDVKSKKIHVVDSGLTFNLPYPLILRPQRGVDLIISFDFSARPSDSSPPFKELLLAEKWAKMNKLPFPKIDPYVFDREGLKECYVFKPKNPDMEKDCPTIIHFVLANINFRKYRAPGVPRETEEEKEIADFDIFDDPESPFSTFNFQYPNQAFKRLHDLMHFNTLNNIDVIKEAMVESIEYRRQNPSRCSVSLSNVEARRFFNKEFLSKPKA
HCRTR1: Orexin/Hypocretin receptor type 1 (HCRTR1, Homo sapiens, UniProt O43613)
Chain of UniProt O43613 (whole entry, looked up): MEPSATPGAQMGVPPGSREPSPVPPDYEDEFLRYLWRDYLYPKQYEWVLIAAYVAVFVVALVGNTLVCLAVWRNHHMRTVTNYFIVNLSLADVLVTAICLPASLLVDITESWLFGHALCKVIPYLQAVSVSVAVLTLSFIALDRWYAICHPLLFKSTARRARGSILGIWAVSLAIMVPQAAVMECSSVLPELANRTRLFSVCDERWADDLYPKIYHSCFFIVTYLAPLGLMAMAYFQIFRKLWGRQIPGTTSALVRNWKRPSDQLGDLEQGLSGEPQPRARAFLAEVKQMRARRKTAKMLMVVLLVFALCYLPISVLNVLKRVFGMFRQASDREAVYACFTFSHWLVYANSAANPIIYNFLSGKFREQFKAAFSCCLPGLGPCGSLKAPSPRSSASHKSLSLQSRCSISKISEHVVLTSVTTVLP
Chain of UniProt Q8TDD5 (whole entry, looked up): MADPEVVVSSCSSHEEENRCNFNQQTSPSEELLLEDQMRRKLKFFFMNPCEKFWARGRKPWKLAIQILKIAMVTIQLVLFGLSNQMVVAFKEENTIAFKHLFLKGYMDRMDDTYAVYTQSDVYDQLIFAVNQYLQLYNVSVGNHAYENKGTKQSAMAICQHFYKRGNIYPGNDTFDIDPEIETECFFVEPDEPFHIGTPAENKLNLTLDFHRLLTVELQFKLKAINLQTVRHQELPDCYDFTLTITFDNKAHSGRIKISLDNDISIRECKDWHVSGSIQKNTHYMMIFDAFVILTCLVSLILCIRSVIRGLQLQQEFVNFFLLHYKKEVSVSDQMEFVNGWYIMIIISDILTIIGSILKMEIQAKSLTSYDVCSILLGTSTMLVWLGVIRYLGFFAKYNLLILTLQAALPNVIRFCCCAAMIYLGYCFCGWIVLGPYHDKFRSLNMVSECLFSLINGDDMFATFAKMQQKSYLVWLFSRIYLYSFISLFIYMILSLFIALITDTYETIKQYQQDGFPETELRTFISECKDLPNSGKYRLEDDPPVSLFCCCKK
Chain of UniProt Q62398 (whole entry, unmodified, looked up): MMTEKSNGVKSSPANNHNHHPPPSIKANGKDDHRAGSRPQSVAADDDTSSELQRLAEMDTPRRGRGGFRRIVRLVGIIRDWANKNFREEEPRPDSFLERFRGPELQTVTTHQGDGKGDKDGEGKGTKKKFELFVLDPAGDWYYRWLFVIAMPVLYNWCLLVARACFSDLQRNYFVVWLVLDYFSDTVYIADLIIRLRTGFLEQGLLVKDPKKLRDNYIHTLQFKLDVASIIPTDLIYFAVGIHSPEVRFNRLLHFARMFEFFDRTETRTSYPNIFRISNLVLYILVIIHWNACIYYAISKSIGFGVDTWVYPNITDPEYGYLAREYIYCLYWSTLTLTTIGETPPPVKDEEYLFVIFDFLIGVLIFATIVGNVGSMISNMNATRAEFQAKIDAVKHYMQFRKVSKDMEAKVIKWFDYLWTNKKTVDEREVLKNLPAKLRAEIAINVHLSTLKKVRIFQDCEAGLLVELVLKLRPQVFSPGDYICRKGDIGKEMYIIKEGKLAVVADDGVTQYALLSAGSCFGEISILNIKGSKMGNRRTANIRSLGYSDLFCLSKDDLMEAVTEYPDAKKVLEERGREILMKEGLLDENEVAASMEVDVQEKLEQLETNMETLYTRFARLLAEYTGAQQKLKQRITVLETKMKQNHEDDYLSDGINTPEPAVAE
Chain of UniProt O75469 (whole entry, looked up): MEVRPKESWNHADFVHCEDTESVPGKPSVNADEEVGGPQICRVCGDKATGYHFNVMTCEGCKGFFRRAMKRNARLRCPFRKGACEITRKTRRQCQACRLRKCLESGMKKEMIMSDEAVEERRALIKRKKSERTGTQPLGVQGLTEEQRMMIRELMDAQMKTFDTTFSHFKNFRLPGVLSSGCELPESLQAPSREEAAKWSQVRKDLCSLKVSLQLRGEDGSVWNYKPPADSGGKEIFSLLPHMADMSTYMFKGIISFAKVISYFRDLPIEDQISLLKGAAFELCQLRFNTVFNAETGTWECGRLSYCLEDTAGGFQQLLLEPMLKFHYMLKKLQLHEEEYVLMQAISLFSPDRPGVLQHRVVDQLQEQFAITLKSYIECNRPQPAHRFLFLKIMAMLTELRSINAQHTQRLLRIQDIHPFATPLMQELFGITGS
Chain of UniProt Q8NET8 (whole entry, looked up): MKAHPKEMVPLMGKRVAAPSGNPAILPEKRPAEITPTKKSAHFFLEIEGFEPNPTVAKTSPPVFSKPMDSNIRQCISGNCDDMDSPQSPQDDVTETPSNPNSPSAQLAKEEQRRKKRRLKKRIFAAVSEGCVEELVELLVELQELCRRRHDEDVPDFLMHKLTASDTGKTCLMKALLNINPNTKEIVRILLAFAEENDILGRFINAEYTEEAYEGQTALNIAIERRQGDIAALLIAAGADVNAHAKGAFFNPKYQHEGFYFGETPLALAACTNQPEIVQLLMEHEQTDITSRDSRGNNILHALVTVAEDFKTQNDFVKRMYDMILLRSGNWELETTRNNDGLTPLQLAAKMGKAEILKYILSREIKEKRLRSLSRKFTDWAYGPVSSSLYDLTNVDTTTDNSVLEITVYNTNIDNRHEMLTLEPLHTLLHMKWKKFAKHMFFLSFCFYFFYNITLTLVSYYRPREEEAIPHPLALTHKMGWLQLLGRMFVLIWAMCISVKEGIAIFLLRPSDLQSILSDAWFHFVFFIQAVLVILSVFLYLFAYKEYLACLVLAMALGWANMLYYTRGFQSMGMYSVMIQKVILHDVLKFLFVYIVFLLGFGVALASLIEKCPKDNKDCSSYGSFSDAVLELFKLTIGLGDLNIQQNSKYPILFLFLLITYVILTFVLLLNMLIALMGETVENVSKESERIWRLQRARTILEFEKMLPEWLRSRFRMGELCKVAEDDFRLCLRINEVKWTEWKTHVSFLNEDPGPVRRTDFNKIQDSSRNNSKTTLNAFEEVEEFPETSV

With `CCCCCCOc1ccc(OCCCC(=O)C(=O)NCCCCC(=O)O)cc1` the XI(50) was 0.013 mole fraction (PLA2G4A; enzyme activity, mixed micelle).
`O=C(/C=C/C=C/c1ccc2c(c1)OCO2)N1CCCCC1` gave an EC50 of 3.09 µM (NR1I2 (Homo sapiens, UniProt O75469); MDR1 promoter reporter, activator, luciferase reporter; LS180, PXR-transfected; 24 h, 1% charcoal-stripped FBS).
With `COc1cc2c(cc1OC)C(Cc1ccc3oc(C)nc3c1)N(CC(=O)NCc1ccccc1)CC2` (stereo not drawn) the Kb was 2.62 µM (HCRTR1; calcium signal, antagonist, fluorescence).
`Nc1nc2c(ncn2[C@@H]2O[C@@H]3COP(=O)(O)O[C@H]3[C@H]2O)c(=O)[nH]1` gave an EC50 of 1.9 µM (Cnga2 (Mus musculus, UniProt Q62398, G204E/M2V); channel current, agonist, inside-out patch clamp; Xenopus oocytes; holding +100 mV).
For `Cc1ccc(C(C)C)cc1O`, the EC50 was 200 µM (TRPV3 (Homo sapiens, UniProt Q8NET8); ion current, activator, whole-cell patch clamp; HEK293 transfected with TRPV3).
`COc1cc2c(cc1OC)C(Cc1ccc(OCCN3CCCCC3)c(OC)c1)N(CC(=O)NCc1ccccc1)CC2` (stereo not drawn) has a Kb of > 10 µM (HCRTR1; calcium signal, antagonist, fluorescence).
With `CCOc1ccc(S(=O)(=O)NC(C)(C)C)cc1-c1nc(O)c2c(n1)c(C(C)(C)C)nn2C` the EC50 was 0.88 µM and < 1 µM (Mucolipin-3 (MCOLN3, Homo sapiens, UniProt Q8TDD5); calcium flux, agonist, Fluo-8 calcium; HEK293 expressing TRPML3).
The Kb of `CCCC(=O)Oc1ccc(CC2c3cc(OC)c(OC)cc3CCN2CC(=O)NCc2ccccc2)cc1OC` (stereo not drawn) is reported as 0.0435 µM (HCRTR1; calcium signal, antagonist, fluorescence).
For `CCCCCCOc1ccc(CCCCC(=O)C(=O)NCCCC(=O)OCC)cc1`, the XI(50) was 0.02 mole fraction (PLA2G4A; enzyme activity, mixed micelle).

For quick reference, copied from above:
`Nc1nc2c(ncn2[C@@H]2O[C@@H]3COP(=O)(O)O[C@H]3[C@H]2O)c(=O)[nH]1` gave an EC50 of 1.9 µM (Cnga2 (Mus musculus, UniProt Q62398, G204E/M2V); channel current, agonist, inside-out patch clamp; Xenopus oocytes; holding +100 mV).
